Measured values gathered from unrelated publications.
Each numbered part is a random draw from the data of one study; scales do not carry over between parts. Substitutions count along the parent as printed.

Block 1 — method: protein-binding microarray; molecule type: double-stranded DNA, one strand shown; matrix: in vitro; concentration: 0.8 µM; notes: whole 60-bp probe, no competitor; reading: higher = stronger binding
Target: Centromere-binding protein 1, full length, N-terminal tag (CBF1, Saccharomyces cerevisiae, UniProt P17106, residues 1-351)
Chain of UniProt P17106 (whole entry, looked up): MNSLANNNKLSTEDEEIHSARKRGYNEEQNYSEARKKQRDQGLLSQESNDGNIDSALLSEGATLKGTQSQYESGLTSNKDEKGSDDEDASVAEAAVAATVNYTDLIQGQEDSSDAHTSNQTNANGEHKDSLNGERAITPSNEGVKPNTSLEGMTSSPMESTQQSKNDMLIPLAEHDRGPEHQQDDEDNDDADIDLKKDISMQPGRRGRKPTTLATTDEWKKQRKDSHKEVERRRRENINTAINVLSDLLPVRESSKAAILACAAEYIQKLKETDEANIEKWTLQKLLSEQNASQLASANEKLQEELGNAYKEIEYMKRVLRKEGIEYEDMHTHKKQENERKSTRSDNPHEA
Sequence	fluorescence intensity [a.u.]
CCTAACTACTATAGTGATGAGCCATAGCTTCGTACAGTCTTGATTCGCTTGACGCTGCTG	511
CCTAACTACTATAGTCACATAATATAGCTTCGTACAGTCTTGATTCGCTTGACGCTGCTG	590
GAAGCGTCTACTCATCACCTATAGTCTCAAGATTAGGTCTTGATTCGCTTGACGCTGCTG	495
CTATGTTAAATTAAAAAGCTGATGTTGCGTAATTTCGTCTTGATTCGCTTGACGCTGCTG	531
CTATCATGGCAACGTCACCTCAATTATTTGGAATTCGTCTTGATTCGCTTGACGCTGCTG	523
CTACCACGACTACAACATGTGCAAGTACTATCCTTCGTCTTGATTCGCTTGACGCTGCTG	635
GAAGTTAGTCTTCATGTGGCGTATTACTTTTCTTAGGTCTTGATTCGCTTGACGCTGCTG	541
CTATGTTTTTATAAGCACGTGACTATAATGTTATTCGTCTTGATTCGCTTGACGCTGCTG	26900
GAACGATAAGCCTGTGACGTACTTATGCGGGAATAGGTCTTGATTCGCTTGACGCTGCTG	584
GAAGAAGATATTTGTGACGTACGTGGACCTTTTTAGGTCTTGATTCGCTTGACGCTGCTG	518
CTATACATTACTTGTGACCACCTATTTACGGCATTCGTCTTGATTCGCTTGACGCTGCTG	746
GAACTTCGACAGCTCACCGTGCCCCTGTCCTTTTAGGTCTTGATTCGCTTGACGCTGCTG	494
CTATAAAACTCTTCTGATGTCCTTTATGGTTTATTCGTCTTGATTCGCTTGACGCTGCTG	512
CTACATATATACCGTCATGAAGTAGCTTAACTTTTCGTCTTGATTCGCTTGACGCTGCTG	538
GAACCACGAGCACATGGGGTGAGTTATATAACATAGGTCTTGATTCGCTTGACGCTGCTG	837
CTACCCTGAATATTGCATGTGATTCGTAAAGAATTCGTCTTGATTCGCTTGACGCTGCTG	2780
CTATCTATACTATGACGCGTCACGAATTGTGCTTTCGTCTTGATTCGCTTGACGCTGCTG	607
GAAACCGAGTGAGTCAGCGTGATCGGCCTCATTTAGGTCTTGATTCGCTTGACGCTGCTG	616
CTACGTAATATAATGTGCATGAAGTACGACCCATTCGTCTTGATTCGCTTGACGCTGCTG	552

Block 2 — target: CCNE2, cyclin fold, Cln2 fusion (human); method: yeast growth competition, sequencing; matrix: yeast; notes: weak parent motif; reference: not given; reading: higher = stronger binding
Starting sequence: SLBP docking peptide (human); ARYKRKLLINDFG
Variant	normalised enrichment score
R2P	0.437
R2Y	1.12
K4V	0.0101
K4Y	0.0579
D11H	0.422
I9S	1.62
K6N	1.59
D11V	1.15
R2G	1.16
L7D	0.394
K4H	0.942
Y3T	0.353
K4L	1.42
A1E	0.263
K4Q	0.718
I9T	0.483
K4F	1.13
R5K L8F	0.587
D11R	1.22
I9G	1.01
K4G	-0.193
R5S	1.09
D11S	-0.0807
L7V	0.205
Y3D	0.827

Block 3 — method: RNA Bind-n-Seq; molecule type: RNA; matrix: in vitro; concentration: 200 nM; notes: whole 134-nt RNA, ends assumed; together with: 150 mM LiCl; reference: input library; reading: higher = stronger binding; each molecule: 7-deaza-guanosine replaces G
Target: Ras GTPase-activating protein-binding protein 1, full length (G3BP1, Homo sapiens, UniProt Q13283)
Chain of UniProt Q13283 (whole entry, looked up): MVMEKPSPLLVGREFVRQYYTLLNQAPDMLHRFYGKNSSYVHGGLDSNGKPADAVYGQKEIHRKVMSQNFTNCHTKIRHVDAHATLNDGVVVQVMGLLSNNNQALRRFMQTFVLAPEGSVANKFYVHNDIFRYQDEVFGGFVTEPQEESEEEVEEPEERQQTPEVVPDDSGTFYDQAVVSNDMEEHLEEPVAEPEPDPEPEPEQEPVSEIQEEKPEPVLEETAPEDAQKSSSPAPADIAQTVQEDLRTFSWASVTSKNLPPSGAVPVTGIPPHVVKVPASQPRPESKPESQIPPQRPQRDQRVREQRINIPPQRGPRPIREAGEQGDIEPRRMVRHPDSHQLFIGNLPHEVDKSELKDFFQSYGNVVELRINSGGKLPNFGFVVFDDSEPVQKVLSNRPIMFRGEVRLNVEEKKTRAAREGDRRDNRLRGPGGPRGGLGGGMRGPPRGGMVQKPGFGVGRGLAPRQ
Sequence	log2 enrichment
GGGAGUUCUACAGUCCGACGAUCUCAAGUCCUGUGCUACACAUCGUAUGUACCGAAUCGGGCCCGGGCCCGGCCCGGAAAGUAUUAUGUUACGCCGUUCGGAUCUGCACUUCCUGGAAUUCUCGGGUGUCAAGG	-0.834
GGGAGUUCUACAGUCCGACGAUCUGGGAGGUGGAUUUUGUUUAUUUUUUUAGCUCAUUUCCAGGGGUGGGAAUUUUUUUUUAAUAUGUGUCAUGAAUAAAGUUGUUUUUGACAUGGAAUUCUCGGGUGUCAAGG	-0.286
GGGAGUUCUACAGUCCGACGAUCUACUAUCAAACAAUCGGAAACCACGCGUCCUACUACAAAGAUGCUCUGCGGUUUUUGGGCUGUGUUGACAUCAAGGAUCUACCAGGUAACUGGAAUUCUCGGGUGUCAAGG	-1.9
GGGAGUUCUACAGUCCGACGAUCAGUCCUGUGCUACACAUCGUAUGUACCGAAUCGGAAAAGGGAAAAGGGGAAAAGGGGAAAGUAUUAUGUUACGCCGUUCGGAUCUGCACUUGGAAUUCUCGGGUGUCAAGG	-0.407
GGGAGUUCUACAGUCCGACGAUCAAGUCCUGUGCUACACAUCGUAUGUACCGAAUCGGAAAAAGGUUUUUUUGGAAAGGAAAGUAUUAUGUUACGCCGUUCGGAUCUGCACUUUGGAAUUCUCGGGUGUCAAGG	-2.6
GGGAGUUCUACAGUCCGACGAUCAGUCCUGUGCUACACAUCGUAUGUACCGAAUCGGAAAAAGGUUUUUGGAAAAAAAGGAAAGUAUUAUGUUACGCCGUUCGGAUCUGCACUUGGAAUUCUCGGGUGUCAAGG	-1.9
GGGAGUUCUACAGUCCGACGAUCCCUGUGCUACACAUCGUAUGUACCGAAUCGGAAAAAAAGGAAAAAAAGGGGAAAAAAAGGGAAAGUAUUAUGUUACGCCGUUCGGAUCUGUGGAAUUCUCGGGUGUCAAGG	-0.313
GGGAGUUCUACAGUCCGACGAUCUCAAGUCCUGUGCUACACAUCGUAUGUACCGAAUCGGAAAAAAAGGUUUGGAGGAAAGUAUUAUGUUACGCCGUUCGGAUCUGCACUUCCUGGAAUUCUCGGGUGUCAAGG	-0.68

Block 4 — method: RNA Bind-n-Seq; molecule type: RNA; matrix: in vitro; concentration: not given; reference: input RNA pool; reading: higher = stronger binding
Target: RING finger protein unkempt homolog, zinc fingers 1-6, GST-SBP tag (UNK, Homo sapiens, UniProt Q9C0B0, residues 30-357)
Chain of UniProt Q9C0B0 (30-357, looked up): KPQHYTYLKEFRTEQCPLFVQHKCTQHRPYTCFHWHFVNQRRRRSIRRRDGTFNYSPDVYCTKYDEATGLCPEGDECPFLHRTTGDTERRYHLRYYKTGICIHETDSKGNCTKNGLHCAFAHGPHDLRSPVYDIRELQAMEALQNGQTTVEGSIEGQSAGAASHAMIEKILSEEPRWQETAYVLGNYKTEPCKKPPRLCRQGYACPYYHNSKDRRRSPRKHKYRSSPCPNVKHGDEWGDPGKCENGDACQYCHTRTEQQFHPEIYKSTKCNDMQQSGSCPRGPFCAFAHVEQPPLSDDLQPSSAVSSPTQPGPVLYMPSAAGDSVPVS
Notes: RNA with constant flanks, human-mouse chimeric sites, ends assumed
Sequence	bound/input enrichment [ratio]
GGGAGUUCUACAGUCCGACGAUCGGAUUCCGCUUCCGGUUCCGUUGGGCUCGGUUCUCUCCUGAGCUACGUGUCUCUACGCUCUCAAUCCGCCAUCCAACAAACAUGGAUCAGGUAAUGCAGUUUGUGGAGCCCAGCCGGCAGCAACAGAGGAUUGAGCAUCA	0.0536
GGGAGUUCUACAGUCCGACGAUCCUGGCCUGGCCCUCCCCAGGGGCCUCCUUUCGUAUAGUCACUGCUUCUGCUACGGAUAUUUUUAGCUGCAACUCCCUACUGGGUGGGGCACCCAUUUCAGGCAGAAGGUUUUGGUACCCUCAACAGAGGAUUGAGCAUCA	0.347
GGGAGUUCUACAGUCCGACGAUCCAGUCCCCGUGUCCCAGUGCAGGACGAUGUGAACAAAAACUCAAAGCGGACCCUCUAUUGUAGUUCUUUUUUUAAAUGUGCCAUUAUUAUUGUUUGUCUUUUUUUUUUUUUUUUUAAAGACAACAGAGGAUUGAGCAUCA	11.6
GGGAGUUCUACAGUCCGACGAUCUCAACAGACAACAUCAAAUACCAGCCUAAGGGGGGUCAGGUACAAAUUGUUACCAAGAAAAUAGACCUAAGCCAUGUGACAUCCAAAUGUGGCUCUCUGAAGAACAUCCGCCACAGGCCACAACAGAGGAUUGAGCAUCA	0.679
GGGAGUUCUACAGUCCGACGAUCCACAGAGGAGACCUCCUGUUCCUCACGAAUUUCCGGGAGGACCCCAUCAGAGCUGGUGAAAUAGUUGUUUUUAAGGUUGAAGGAAGAGACAUUCCGAUAGUUCACAGAGUAAUCAAAGUUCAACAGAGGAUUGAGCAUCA	4.84
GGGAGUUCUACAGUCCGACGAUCGAUGAUAAUCACACAAACAAGUCACUGUUACAUGACCAGCCUUGGGAUUCUUUUCCUGAUUAGUAUUCUCCCUGGAACCACUGGUCAAGGGGAAUCAAGACGACAAGAACCUGGGGACUUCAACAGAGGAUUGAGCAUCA	0.161
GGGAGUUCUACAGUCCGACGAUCAAAGUGAUGACUAUGUUUGUCCAACGACAGGUAUUUUCGGAGAGCAAAGAUGAGAUUGCGUUAGUCCUCUAUGGCACAGAUGGCACUGAUAAUGCCCUUUCUGGUGGGGAUCAGUAUCAGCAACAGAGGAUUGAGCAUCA	0.301
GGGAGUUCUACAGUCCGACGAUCUCUUUAAAUGCACUACAACCUUUUCUGACAGUGCUUUCCCUCCCAUAGAUCCACGUUCAAGCUCAAAGAGCAAAGGCUUUGCACGGAGCUCAAACAUAAAAGAAAGAAAGAUUUCUGAGACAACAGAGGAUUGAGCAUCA	0.354

Block 5 — method: RNA Bind-n-Seq; molecule type: RNA; matrix: in vitro; concentration: 365 nM; reference: no-protein control; reading: higher = stronger binding
Target: RNA binding protein fox-1 homolog 2, RRM domain, GST-SBP tag (RBFOX2, Homo sapiens, UniProt O43251-10, residues 100-194)
Notes: natural RNA segment, single round, ends assumed
Sequence	RBNS enrichment (R)
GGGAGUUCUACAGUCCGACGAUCAUUGGUGCUAGCCCAUGGGAUCGAUCUCAAGUUGGGCUGGUUACUGGUUAGCCAUUCCCUCACUCUCUGUUCCCUCCUGCGUGCCUGCAUUUCCUAUAGACAGGUUAAAUUGGAAUUCUCGGGUGCCAA	0.379
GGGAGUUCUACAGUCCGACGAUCCGUUGUUUGACUAUUUUAUAAUUUUGUUAUUAAAACAUCCAGGGUGAUUUCAUCUUUGUUCCUAGAUGUACUCAUUUGAAUAGGUUUUGCGUUCAUUACUCAGCAGUGUAUGGAAUUCUCGGGUGCCAA	0.764
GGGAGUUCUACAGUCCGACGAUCGUAAAUGUGUUUGAUGACCAGACUCUUCAUACAGUCGGCUUGGGCCACUUUAAAGGACAAAAGCCAGAGCUCAGCUUUAUCCCUCUCCCAGUGCUGGGAGCCAAAAAACUUGGAAUUCUCGGGUGCCAA	0.41
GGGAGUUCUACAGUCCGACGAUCACUUUGAUUUCCUUGUUCAGGUCAGGGCCUGGAACGCCUGUGCGGGGAGGUCACUCAAUUCAAAAUUUUCUGUAUGAAAGCAUUUUUCACCAAAAUGAGCCUCAUCCCUUUGGAAUUCUCGGGUGCCAA	0.434
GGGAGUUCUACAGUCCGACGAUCAAGCCACCCACCAGCCUAUCUAUCUUCCACUGAGAGGGACCUAGCAGAAUGAGAGAAGACAUUCAUGUACCACCUACUAGUCCCUCUCUCCCCAACCUCUGCCAGGGCAAUGGAAUUCUCGGGUGCCAA	0.636
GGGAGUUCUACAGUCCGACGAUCAGCUUCAGACCCGGAGAUGUUGUUCACGCCCUUGCCCUGUGCCCACCUCUUCUCUUCCUGCCCGGCUCUGCUUCUGUGUCUUGAUGUCAGCUCACACAAUUCCAAAGGAAUGGAAUUCUCGGGUGCCAA	0.828
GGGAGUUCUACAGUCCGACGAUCAGUCCCAGCUACUUGGGAGGCUGAGGUAGGAGAAUUGCUUGAACCUGGGAGGCGGAGGUUGCGGUGAGCUGAGAUCACGCCACUACACUCCAGCCUGGUGACAGAGCAAGUGGAAUUCUCGGGUGCCAA	0.426
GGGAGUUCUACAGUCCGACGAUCGGAACCCAUCAGGUAUGAGUGAGGAGCCGGUAGUGAAUUCAGUAUUGGCCAAGUCCAUGUUGUGUGCUCAGAAGUCUCUUUACCAAAGACCAGGAGCAGGAGCCAAGCAUUGGAAUUCUCGGGUGCCAA	0.936

Repeated from above (block 2):
Variant	normalised enrichment score
R5S	1.09
I9T	0.483
K4L	1.42
K4Q	0.718
K6N	1.59
D11V	1.15
I9S	1.62
R2Y	1.12
D11R	1.22
